Measurements gathered from unrelated publications.
Compare with care: the assays were run in different laboratories. Several values in a cell are separate wells, animals, samples, runs or records. Numbers after ± are the reported error.

SMILES	test	test system	setting	scale	measurement	result
OC[C@H]1O[C@@H](c2ccc(Cl)c(Cc3ccc(O[C@H]4CCOC4)cc3)c2)[C@H](O)[C@@H](O)[C@@H]1O		healthy Korean men, blood	oral, dose not given, steady state OGTT		insulin AUEC	100 ± 26.1 h·µU/mL
Oc1ccc(/C=C/c2cc(O)cc(O)c2)cc1		Mus musculus, chronic-plus-binge ethanol, plasma	dose not given		AST/ALT ratio	1.84 and 1.8 and 2.15 and 1.7 and 1.77
CCCCC1(CCCC)CN(c2ccccc2)c2cc(SC)c(OCC(=O)N[C@@H](C(=O)NCC(=O)O)c3ccccc3)cc2S(=O)(=O)C1	item: 7α-hydroxy-4-cholesten-3-one	human, plasma	2.5 mg once daily, day 7		plasma C4	45.3 ng/mL
CC(=O)Oc1cc2c(s1)CCN(C(C(=O)C1CC1)c1ccccc1F)C2 (centres unmarked)	platelet aggregation, light transmittance aggregometry	human, platelet-rich plasma	dose not given, 30 min, IPA above 80 %, together with: TRAP 15 µM	baseline: patients	patients with IPA above threshold	0%
Cn1cc([C@H]2C[C@H]3CSC(N)=N[C@@]3(c3ccc(F)cc3F)CO2)cn1	item: Aβx-40	Mus musculus wild-type, cerebrospinal fluid	subcutaneous, 10 mg/kg, 9 h		Aβ40 level	1.33 ng/mL
CCN(Cc1nc2c(N)nc3cc(-c4cc[nH]n4)ccc3c2[nH]1)C(C)=O	immunohistochemistry, item: MPO+ TANs	patients with advanced solid tumours, injected tumour lesions	dose not given, monotherapy	baseline: baseline	mean fold change	2.2
C[C@@H]1C[C@H]2O[C@@]3(O[C@@H]2C(C)(C)O)[C@H](O)[C@@]2(C)[C@@H]4CC[C@H]5C(C)(C)[C@@H](O[C@@H]6OC[C@@H](O)[C@H](O)[C@H]6O)CC[C@@]56C[C@@]46CC[C@]2(C)[C@@H]13	agonist, qPCR, item: Bsep	medaka larvae, water exposure	10 µM, 48 h	baseline: maximal induction by reference agonist	mRNA induction	108%
COc1cc(Nc2ncc3c(n2)-c2ccc(Cl)cc2C(c2c(F)cccc2OC)=NC3)ccc1C(=O)O		mouse, NB-1771 neuroblastoma xenograft	oral, 10.4 mg/kg, day 21	baseline: vehicle	relative tumour volume T/C	0.46
C=CCn1c(=O)c2cnc(Nc3ccc(N4CCN(C)CC4)cc3)nc2n1-c1ccc2c(n1)[C@@](O)(CC)CC2		SW1463 xenograft, NCG mice	oral, 60 mg/kg days 0-11 then 80 mg/kg days 11-21, day 21, once daily		tumour growth inhibition	56.9%
Cc1n[nH]c2ccc(-c3cc(OC[C@@H](N)Cc4ccccc4)cnc3-c3ccoc3)cc12	kinase binding, competitor, MIB/MS competition, item: HRK1	Candida albicans cell lysate	100 nM	baseline: DMSO	log2 fold change	-0.0934
O=P(O)(O)C(Cl)(Cl)P(=O)(O)O		Mus musculus, subarachnoid haemorrhage, hippocampal fissure	concentration not given, day 7	baseline: total area	Iba1-positive area	2.39% and 1.64% and 2.31%
C[C@@H](NC(=O)N1C(=O)[C@H](Cc2ccnc(N)c2)[C@H]1C(=O)O)C1CCCCC1		human	iv infusion, 0.3 mg/kg/h, 24 h		time to aPTT Emax	84 h
N#Cc1ccc2c(-c3ccncc3)c(-c3ccc(F)cc3)nn2c1	kinase binding, competitor, MIB/MS competition, item: GIN4	Candida albicans cell lysate	100 nM	baseline: DMSO	log2 fold change	0.0953
CCO[C@H]1CCN(Cc2c(OC)cc(C)c3[nH]ccc23)[C@H](c2ccc(C(=O)O)cc2)C1		PNH patients, blood	oral, 25 mg then 100 mg, week 8, mean absolute change	baseline: baseline	PNH RBC clone size	43.9%
C[C@H]1C[C@H]2CSC(N)=N[C@@]2(c2nc(NC(=O)c3ccc(OC(F)F)cn3)cs2)CO1	item: Aβ1-40	healthy adults, plasma	125 mg once daily, day 7	baseline: placebo	percent change from baseline	-87.1%
OC(CCN1CCCCC1)(c1ccccc1)C1CC2C=CC1C2 (centres unmarked)	resting-state EEG	healthy elderly humans	oral, 4 mg, eyes closed, LS mean		EEG gamma power, O2 Pz	0.9 µV²
CCCCCN1C[C@H](O)[C@@H](O)[C@H](O)[C@@H]1CO		mouse Hexb-/-, cerebral cortex	30 mg/kg/day	baseline: untreated Hexb-/- mice	number of increased sphingolipids	16
O=C(COc1ccc(Cl)cc1)NC12CC(c3nnc([C@H]4C[C@@H](OC(F)(F)F)C4)o3)(C1)C2		healthy human, PBMC	260 mg once daily, day 15, 24 h post-dose, median, together with: sodium arsenite ex vivo	baseline: baseline	ATF4 protein change	-60.9%
COc1ccccc1[C@H](Cn1c(=O)n(C(C)(C)C(=O)O)c(=O)c2c(C)c(-c3ncco3)sc21)OC1CCOCC1		human	20 mg, post-treatment		blood Glucose level	93.9 ± 8.37 mg/dL

SMILES	test	test system	setting	scale	measurement	result
COc1ccc(C2=N[C@@H](c3ccc(Cl)cc3)[C@@H](c3ccc(Cl)cc3)N2C(=O)N2CCNC(=O)C2)c(OC(C)C)c1	histology	Dmd C3333Y mice, triceps	dose not given		necrotic area	11.6% and 9.7% and 11.2% and 10.8% and 12.1%
C[C@]12CC[C@@H]3c4ccc(O)cc4CC[C@H]3[C@@H]1CC[C@@H]2O	RT-qPCR, item: CO	Arabidopsis thaliana ING1:FLAG seedlings	dose not given, 6 h (ZT12), unit not given	baseline: TUB2	mRNA level	0.0135 and 0.0125
N#Cc1ccc2c(c1)[C@H]1CCCN(C(=O)c3ccc4[nH]cnc4c3)[C@H]1C2	meal tolerance test	human, Phase II trial	20 mg once daily, day 28, AUC0-2 h, adjusted mean	baseline: baseline	glucose AUC change	1.06 mmol/h/L
c1ccc(-c2n[nH]cc2-c2ccnc3ccccc23)nc1	kinase binding, competitor, MIB/MS competition, item: RCK2	Candida albicans cell lysate	100 nM	baseline: DMSO	log2 fold change	1.55
CC[C@H](C)[C@H](NC(=O)[C@H](C)NC(=O)CNC(=O)[C@H](Cc1ccccc1)NC(=O)[C@H](CC(N)=O)NC(=O)[C@H](CC(N)=O)NC(=O)[C@H](CO)NC(=O)[C@H](CO)NC(=O)[C@H](Cc1c[nH]cn1)NC(=O)[C@@H](NC(=O)[C@H](CC(C)C)NC(=O)[C@H](Cc1ccccc1)NC(=O)[C@H](CC(N)=O)NC(=O)[C@H](C)NC(=O)[C@H](CC(C)C)NC(=O)[C@H](CCCNC(=N)N)NC(=O)[C@H](CCC(N)=O)NC(=O)[C@@H](NC(=O)[C@H](C)NC(=O)[C@@H]1CSSC[C@H](NC(=O)[C@@H](N)CCCCN)C(=O)N[C@@H](CC(N)=O)C(=O)N[C@@H]([C@@H](C)O)C(=O)N[C@@H](C)C(=O)N[C@@H]([C@@H](C)O)C(=O)N1)[C@@H](C)O)C(C)C)C(=O)N[C@@H](CC(C)C)C(=O)N[C@@H](CO)C(=O)N[C@@H](CO)C(=O)N[C@H](C(=O)N[C@@H](CC(N)=O)C(=O)N[C@H](C(=O)NCC(=O)N[C@@H](CO)C(=O)N[C@@H](CC(N)=O)C(=O)N[C@H](C(=O)N[C@@H](Cc1ccc(O)cc1)C(N)=O)[C@@H](C)O)C(C)C)[C@@H](C)O		isolated mouse islets	10 µM, 24 h, together with: 1.6 mM glucose (low)	baseline: control	insulin secretion	~16.4%
CN(C(=O)n1cnc(-c2ccc[n+]([O-])c2)c1)C1CCCCC1		mice, brain	oral, 1 mg/kg, 4 h		anandamide level	98 ± 4 pmol/g
NCC(=O)Nc1cncc(-c2nn3c(=O)cc(N4CCNCC4)nc3s2)c1	ADP-induced platelet aggregation, light transmission aggregometry	human stable CAD patients on aspirin, platelets ex vivo	0.075 mg/kg, 15 min post dose, together with: 20 µM ADP	baseline: placebo difference	inhibition of platelet aggregation	74.1%
Cc1noc(C)c1-c1cc(C(O)(c2ccccn2)c2ccccn2)c2nc(C3CC3)[nH]c2c1	item: HEXIM1 expression	human patients	dose not given, day 8, 192 h		maximum induction	41.4%
Cc1cnc(N2CC3(CCOCC3)C2)c(C(=O)Nc2ccc(C(=O)N3CCc4cc(C(=O)Nc5c(C)cccc5F)sc4-c4ccccc43)cc2)c1		human, RSV infection, nasal wash	dose not given, ITT-I population	baseline: placebo	inhibition of MCP3 AUC	11%
O=C(OC(C(F)(F)F)C(F)(F)F)N1CCN(Cc2cccc(Oc3ccccc3)c2)CC1	PET blocking study	rhesus monkey, brain STR	0.01 mg/kg, compound pretreatment, together with: [18F]T-401 tracer		k4	0.131 min⁻¹
CCOc1c([C@H](C)n2nc(C)c3c(N)ncnc32)cc(Cl)c(F)c1[C@@H]1CNC(=O)C1	Olink proximity extension proteomics, item: CCL19	human FL or MZL patients, plasma	dose not given, week 8	baseline: baseline	plasma protein level change	-65%
COc1ccc(-c2cncc(N[C@@H](C)c3cccc(NC(=O)c4cncc(C)c4)c3)n2)cc1OC	item: rno-miR-136-5p	rat SU5416/hypoxia model, lung	dose not given	baseline: SU5416/hypoxia vehicle	fold change	2.5
CCCn1cc(C)c2c(=O)[nH]c(-c3cc(S(=O)(=O)N4CCN(CC)CC4)ccc3OCC)nc21		supine	concentration not given, 0 to 4 h	baseline: baseline	maximum change in diastolic blood pressure	-7.67 ± 4.08 mmHg
O=C(O)CNC(=O)Cc1ccccc1		ventricular cardiomyocytes, C57BL/6 mouse	dose not given, 0.688 s		sarcomere length	1.72 µm
Cc1oncc1C(=O)Nc1ccc(C(F)(F)F)cc1	item: dihydroorotate	female CD-1 mice, blood	oral, 30 mg/kg daily, 8 h after dose 10		DHO concentration	47.5 ± 20.4 µM
N#Cc1ccn2c(-c3ccncc3)c(-c3ccc(F)cc3)nc2c1	kinase binding, competitor, MIB/MS competition, item: KIN3	Candida albicans cell lysate	100 nM	baseline: DMSO	log2 fold change	-0.243
Cn1cc(Nc2nccc(-c3ccc4c(c3)CN(C3COC3)CC[C@H]4NC(=O)c3cn(C(C)(C)C)nn3)n2)cn1	item: Endocannabinoid Developing Neuron Pathway	splenic B cells, Mus musculus	30 mg/kg, together with: IgD activation	baseline: vehicle, direction not given	pathway activation z-score	2
CC1(C)CCC(CN2CCN(c3ccc(C(=O)NS(=O)(=O)c4ccc(NCC5CCOCC5)c([N+](=O)[O-])c4)c(Oc4cnc5[nH]ccc5c4)c3)CC2)=C(c2ccc(Cl)cc2)C1	cell kill	primary neoplastic T lymphocytes, dog 8	24 h, multicentric intermediate-large T-cell lymphoma		EC50	10 nM
O=C([O-])CN1CCN(CC(=O)[O-])CCN([C@H](CO)[C@H](O)CO)CCN(CC(=O)[O-])CC1.[Gd+3] (racemic)		C57BL/6 mouse, healthy, liver	intravenous, 0.1 mmol/kg		maximum signal enhancement	~65%
